Experimental data gathered from unrelated publications.
Lines come from different studies, so protocols differ. ± gives the spread as reported.
SLC22A2: Solute carrier family 22 member 2 (SLC22A2, Homo sapiens, UniProt O15244)
Chain of UniProt O15244 (whole entry, looked up): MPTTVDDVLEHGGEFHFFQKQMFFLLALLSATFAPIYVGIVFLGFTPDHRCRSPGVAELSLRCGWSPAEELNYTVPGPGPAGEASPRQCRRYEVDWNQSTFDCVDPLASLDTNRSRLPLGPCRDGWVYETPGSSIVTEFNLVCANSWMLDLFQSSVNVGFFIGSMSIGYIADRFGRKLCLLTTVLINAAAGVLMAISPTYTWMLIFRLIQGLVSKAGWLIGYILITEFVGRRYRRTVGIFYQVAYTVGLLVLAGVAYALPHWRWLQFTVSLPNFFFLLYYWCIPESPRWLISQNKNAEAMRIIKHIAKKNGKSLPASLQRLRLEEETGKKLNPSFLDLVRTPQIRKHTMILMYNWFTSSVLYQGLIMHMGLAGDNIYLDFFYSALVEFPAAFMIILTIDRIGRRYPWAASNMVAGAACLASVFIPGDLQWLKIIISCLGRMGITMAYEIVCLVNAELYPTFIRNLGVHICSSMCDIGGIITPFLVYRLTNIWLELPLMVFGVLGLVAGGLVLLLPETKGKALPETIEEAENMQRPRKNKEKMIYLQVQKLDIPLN
Chain of UniProt O75795 (whole entry, looked up): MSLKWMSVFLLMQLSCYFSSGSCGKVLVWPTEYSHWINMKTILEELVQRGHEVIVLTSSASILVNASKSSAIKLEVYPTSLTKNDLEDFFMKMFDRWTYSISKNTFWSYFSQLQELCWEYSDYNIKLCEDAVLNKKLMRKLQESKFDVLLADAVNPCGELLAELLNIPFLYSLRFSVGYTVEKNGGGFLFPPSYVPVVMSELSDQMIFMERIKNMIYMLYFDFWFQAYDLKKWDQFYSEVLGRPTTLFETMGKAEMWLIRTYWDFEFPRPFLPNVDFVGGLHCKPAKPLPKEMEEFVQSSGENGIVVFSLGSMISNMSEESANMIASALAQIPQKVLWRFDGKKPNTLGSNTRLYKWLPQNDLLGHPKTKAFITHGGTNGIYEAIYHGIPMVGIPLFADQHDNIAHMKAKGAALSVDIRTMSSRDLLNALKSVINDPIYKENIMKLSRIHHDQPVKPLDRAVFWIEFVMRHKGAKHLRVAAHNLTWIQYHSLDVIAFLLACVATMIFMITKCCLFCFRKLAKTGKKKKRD
Chain of UniProt O43704 (whole entry, looked up): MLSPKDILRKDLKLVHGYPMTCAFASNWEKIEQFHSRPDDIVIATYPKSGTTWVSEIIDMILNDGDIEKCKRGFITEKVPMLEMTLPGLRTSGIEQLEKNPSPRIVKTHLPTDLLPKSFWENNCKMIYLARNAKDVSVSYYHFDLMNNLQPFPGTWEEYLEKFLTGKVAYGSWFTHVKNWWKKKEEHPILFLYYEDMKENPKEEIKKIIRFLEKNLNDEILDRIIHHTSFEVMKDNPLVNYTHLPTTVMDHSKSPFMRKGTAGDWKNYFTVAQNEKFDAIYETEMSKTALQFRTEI
Chain of UniProt P07724 (whole entry, looked up): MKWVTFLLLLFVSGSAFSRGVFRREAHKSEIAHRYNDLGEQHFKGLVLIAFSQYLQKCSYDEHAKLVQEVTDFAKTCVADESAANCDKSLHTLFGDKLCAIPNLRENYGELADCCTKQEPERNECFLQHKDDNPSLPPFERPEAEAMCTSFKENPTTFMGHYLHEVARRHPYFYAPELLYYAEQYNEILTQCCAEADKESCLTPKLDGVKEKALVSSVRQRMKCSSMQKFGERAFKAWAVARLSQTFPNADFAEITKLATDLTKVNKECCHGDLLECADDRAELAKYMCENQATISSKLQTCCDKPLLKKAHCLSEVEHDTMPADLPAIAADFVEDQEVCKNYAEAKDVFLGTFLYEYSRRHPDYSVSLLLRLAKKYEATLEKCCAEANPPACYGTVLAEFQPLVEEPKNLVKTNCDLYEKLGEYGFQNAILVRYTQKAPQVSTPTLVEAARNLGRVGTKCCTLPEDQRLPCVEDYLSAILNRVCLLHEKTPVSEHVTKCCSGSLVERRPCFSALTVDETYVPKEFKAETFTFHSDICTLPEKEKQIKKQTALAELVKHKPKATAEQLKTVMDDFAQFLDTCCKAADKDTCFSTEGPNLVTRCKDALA
Chain of UniProt P08684 (whole entry, looked up): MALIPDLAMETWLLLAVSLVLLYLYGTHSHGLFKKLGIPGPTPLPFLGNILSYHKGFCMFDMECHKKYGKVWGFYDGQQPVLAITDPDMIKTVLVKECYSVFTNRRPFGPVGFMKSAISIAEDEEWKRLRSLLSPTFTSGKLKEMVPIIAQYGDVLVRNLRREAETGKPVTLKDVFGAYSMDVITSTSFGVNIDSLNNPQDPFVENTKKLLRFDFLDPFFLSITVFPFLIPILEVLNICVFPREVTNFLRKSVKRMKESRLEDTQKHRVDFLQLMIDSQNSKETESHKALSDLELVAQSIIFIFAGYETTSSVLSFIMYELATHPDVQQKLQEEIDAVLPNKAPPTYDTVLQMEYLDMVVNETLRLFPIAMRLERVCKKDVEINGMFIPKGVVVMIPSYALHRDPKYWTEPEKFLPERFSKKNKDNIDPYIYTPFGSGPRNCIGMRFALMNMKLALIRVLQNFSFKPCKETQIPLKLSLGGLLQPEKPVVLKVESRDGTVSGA

Compound | tested on | assay | system | conditions | endpoint | value
Cc1ccnc([18F])c1-c1cccc(N2C[C@H](N3CCN(C(=O)c4nccs4)CC3)CC2=O)c1 | monoacylglycerol lipase | PET, arterial input | rhesus monkey, brain thalamus | intravenous, baseline | VT | 4.5 mL/cm3
C/C(O)=C(\C#N)C(=O)Nc1ccc(C(F)(F)F)cc1 | human BCRP |  | MDCK-II cells expressing BCRP | 5 µM, together with: Ko143 1 mol/L | efflux ratio | 1.44
O=C(O)COc1cccc(-c2nc(Nc3ccc4[nH]ncc4c3)c3ccccc3n2)c1 | UDP-glucuronosyltransferase 2B17 (UGT2B17, Homo sapiens, UniProt O75795) | enzyme activity, inhibitor |  | together with: testosterone | IC50 | 53.7 µM
CC[C@H]1[C@@H](O)[C@@H]2[C@H](CC[C@]3(C)[C@@H]([C@H](C)CCNC(=O)NS(=O)(=O)c4ccc(C(C)(C)C)cc4)CC[C@@H]23)[C@@]2(C)CC[C@@H](O)C[C@@H]12 | Cytochrome P450 3A4 (CYP3A4, Homo sapiens, UniProt P08684) | substrate | human, plasma | 10 mg, alone, study day 1 | CL/F geometric mean | 27.8 L/h
COc1cc(O)c(CC=C(C)C)c2c1C(=O)CC(c1ccc(O)cc1)O2 (stereo not drawn) | CYP2D6 (human) | enzyme activity, inhibitor | human liver microsomes | 10 µM, pH 7.4, together with: dextromethorphan | inhibition | < 10%
COc1cc2c(CCNC(C)=O)c[nH]c2cc1O | Sulfotransferase 1B1 (SULT1B1, Homo sapiens, UniProt O43704) | substrate, sulfation, purified enzyme |  | 10 µM, 10 min, pH 7.0, 37 °C | specific activity | 0.32 ± 0.02 nmol/min/mg
CCc1cc(/C(C)=N/OCc2ccc(C3CCCCC3)c(C(F)(F)F)c2)ccc1CN1CC(C(=O)O)C1 | SLC22A2 | inhibitor | HEK293 transfected with SLC22A2 | up to 24.3 µM, 5 min, together with: MPP+ 0.025 µM | maximal inhibition | 20.9%
CC(=O)N1CC(C(=O)Nc2ccc(C3CCCCC3)cc2)C1 |  | liver microsome stability | dog liver microsomes | 1 µM | hepatic clearance | 18 mL/min/kg
CCOc1ccc(-c2nc3ccc(-c4nc5ccc(N6CCN(C)CC6)cc5[nH]4)cc3[nH]2)cc1 | Albumin (Mus musculus, UniProt P07724) |  | PBS | 1 µM, 1 h, together with: 25 mg/mL albumin | fluorescence quantum yield | 0.033 ± 0.007
COc1cc(O)c(CC=C(C)C)c(O)c1C(=O)/C=C/c1ccc(O)cc1 | CYP2D6 (human) | enzyme activity, inhibitor | human liver microsomes | 1 µM, pH 7.4, together with: dextromethorphan | inhibition | < 10%
CNCc1cc(-c2ccccc2F)n(S(=O)(=O)c2cccnc2)c1 | CYP2D6 | recombinant CYP with ISEF scaling |  |  | fraction metabolised | 49.1%
Cc1nc(-c2cnc(NC(C)C)n(C)c2=O)ccc1Oc1ccnc(-c2cnn(C)c2)c1 | CYP3A4/5, human | inhibitor |  | 30 min, metabolism-dependent, NADPH preincubation | IC50 | > 100 µM
NC/C(=C\F)COc1cccc(Cn2c(=S)[nH]c(=O)c3[nH]cnc32)c1 | SLC22A2 | transport, inhibitor | CHO cells expressing SLC22A2 | 30 µM, together with: ASP+ substrate | inhibition | < 50%
O=C1OC(c2ccccc2)=N/C1=C\c1cccc(O)c1 | bovine serum albumin | fructose-induced glycation, inhibitor, refers to: fluorescent AGEs |  | 1600 ppm, 21 days, pH 7.4 | inhibition | 27.5%
O=C(NCc1cc[nH]n1)c1ccc([C@H]2[C@@H](F)[C@@H](F)C[C@@H](F)[C@H]2F)cc1 |  | liver microsome stability | cynomolgus liver microsomes | 1 µM | hepatic clearance | 4.9 mL/min/kg

Repeated from above:
Compound | tested on | assay | system | conditions | endpoint | value
C/C(O)=C(\C#N)C(=O)Nc1ccc(C(F)(F)F)cc1 | human BCRP |  | MDCK-II cells expressing BCRP | 5 µM, together with: Ko143 1 mol/L | efflux ratio | 1.44
O=C1OC(c2ccccc2)=N/C1=C\c1cccc(O)c1 | bovine serum albumin | fructose-induced glycation, inhibitor, refers to: fluorescent AGEs |  | 1600 ppm, 21 days, pH 7.4 | inhibition | 27.5%
